Measured values from different studies.
Protocols differ between the studies behind these lines.
Organism: Acinetobacter baumannii

| Compound | assay | test system | conditions | MIC |
| --- | --- | --- | --- | --- |
| CC[C@H](C)[C@H](NC(=O)[C@H](CC(C)C)NC(=O)[C@H](CCCNC(=N)N)NC(=O)[C@@H](N)CCCNC(=N)N)C(=O)N[C@@H](CCCNC(=N)N)C(=O)N[C@@H](CCCCN)C(=O)N[C@@H](CC(C)C)C(=O)N[C@@H](CCCCN)C(=O)NCC(=O)N1CCC[C@H]1C(=O)N[C@@H](CCCCN)C(=O)N[C@H](C(=O)N[C@@H](Cc1ccc(O)cc1)C(=O)N[C@@H](CC(C)C)C(=O)N[C@@H](Cc1ccc(O)cc1)C(=O)N[C@@H](Cc1ccccc1)C(=O)N[C@@H](CCCCN)C(=O)N[C@@H](CC(C)C)C(=O)N[C@@H](CCC(N)=O)C(=O)N[C@@H](CC(C)C)C(=O)N[C@@H](CC(C)C)C(=O)N[C@@H](CCCCN)C(=O)N[C@@H](CCCCN)C(N)=O)[C@@H](C)CC | – | KCCM 40203, Mueller-Hinton broth | 24 h | 8 µM |
| CC[C@H](C)CCCCC(=O)N[C@@H](CCN)C(=O)N[C@H](C(=O)N[C@@H](CCN)C(=O)N[C@H]1CCNC(=O)[C@H]([C@@H](C)O)NC(=O)[C@H](CCN)NC(=O)[C@H](CCN)NC(=O)[C@H](CC(C)C)NC(=O)[C@@H](CC(C)C)NC(=O)[C@H](CCN)NC1=O)[C@@H](C)O | – | lab-evolved 408 | – | 8 µg/mL |
| NCCCC1CN(c2ccc3c(n2)NC(=O)CO3)C(=O)O1 (stereo not drawn) | – | ATCC 19606 | – | 160 µg/mL |
| N=C(N)NCCC[C@H](NC(=O)CCCCCNC(=O)[C@H](CCCNC(=N)N)NC(=O)[C@H](CCCNC(=N)N)NC(=O)CCCCCNC(=O)[C@H](CCCNC(=N)N)NC(=O)[C@H](CCCNC(=N)N)NC(=O)CCCCCNC(=O)[C@H](CCCNC(=N)N)NC(=O)[C@H](CCCNC(=N)N)NC(=O)CCCCCNC(=O)[C@@H](N)CCCNC(=N)N)C(=O)NCCCCCC(=O)NCCC(=O)O | broth microdilution | ATCC 19606, Mueller-Hinton broth | – | 192 µM |
| CC1(C)S[C@@H]2[C@H](NC(=O)[C@H](C(=O)O)c3ccsc3)C(=O)N2[C@H]1C(=O)O | – | carbapenem-resistant clinical isolate | – | > 64 µg/mL |
| CC(C)C[C@@H](NC(=O)CNC(=O)[C@@H](CCCCN)NC(=O)[C@@H](CC(C)C)NC(=O)[C@@H](CCCCN)NC(=O)[C@@H](CCCNC(=N)N)NC(=O)[C@@H](CC(C)C)NC(=O)[C@@H](CC(C)C)NC(=O)[C@@H](CCCNC(=N)N)NC(=O)[C@H](N)CCCNC(=N)N)C(=O)N[C@H](CCCCN)C(=O)N[C@H](CCCCN)C(=O)N[C@H](Cc1ccc(O)cc1)C(=O)N[C@H](CC(C)C)C(=O)N[C@H](Cc1ccc(O)cc1)C(=O)N[C@H](Cc1ccccc1)C(=O)N[C@H](CCCCN)C(=O)N[C@H](CC(C)C)C(=O)N[C@H](CCC(N)=O)C(=O)N[C@H](CC(C)C)C(=O)N[C@H](CC(C)C)C(=O)N[C@H](CCCCN)C(=O)N[C@H](CCCCN)C(N)=O | – | ATCC BAA1605, Mueller-Hinton broth | 24 h | 1 µM |
| C[C@@H](O)[C@H]1C(=O)N2C(C(=O)O)=C(SCCN=CN)C[C@H]12 | – | CCARM 12006 carbapenem-resistant, Mueller-Hinton broth | 16 h, 37 °C | 128 µM |
| CCCCCCCC(=O)N[C@@H](CCCNC(=N)N)C(=O)N[C@@H](CCCNC(=N)N)C(=O)N[C@@H](CCCNC(=N)N)C(=O)N[C@@H](CCCNC(=N)N)C(=O)N[C@H](C(=O)N[C@@H](CC(C)C)C(=O)N[C@H](C(=O)N[C@@H](CCCCN)C(=O)N[C@@H](CCCCN)C(=O)N[C@H](C(=O)N[C@@H](CC(C)C)C(=O)N[C@@H](CCCCN)C(=O)N[C@@H](CC(C)C)C(=O)N[C@@H](CCCCN)C(=O)N[C@@H](CO)C(=O)N[C@@H](CO)C(=O)N[C@@H](C)C(=O)N[C@@H](Cc1ccc(O)cc1)C(N)=O)C(C)C)[C@@H](C)CC)[C@@H](C)CC | broth microdilution | ATCC 17978 | highest value reported | 4 µM |
| CC[C@@H](C)[C@@H](N)C(=O)N[C@@H](C(=O)N[C@H](Cc1ccc(O)cc1)C(=O)N[C@@H](C(=O)N[C@H](CCN)C(=O)N[C@H](CC(C)C)C(=O)N[C@H](CO)C(=O)N[C@H](CCN)C(=O)N[C@@H](C(=O)N[C@H](CCN)C(=O)N[C@H](Cc1c[nH]cn1)C(=O)N[C@H](CCN)C(=O)N[C@H](C)C(=O)N[C@H](CCN)C(=O)N[C@H](CCN)C(N)=O)[C@H](C)CC)[C@H](C)CC)[C@H](C)CC | broth microdilution | CDC 0288, Mueller-Hinton broth | – | 8 µg/mL |
| CC[C@H](C)[C@H](NC(=O)[C@H](CC(C)C)NC(=O)[C@H](CCCNC(=N)N)NC(=O)[C@@H](N)CCCNC(=N)N)C(=O)N[C@@H](CCCNC(=N)N)C(=O)N[C@@H](CCCCN)C(=O)N[C@@H](CC(C)C)C(=O)N[C@@H](CCCCN)C(=O)NCC(=O)N1CCC[C@H]1C(=O)N[C@H](C(=O)N[C@H](C(=O)N[C@@H](Cc1ccc(O)cc1)C(=O)N[C@@H](CC(C)C)C(=O)N[C@@H](Cc1ccc(O)cc1)C(=O)N[C@@H](Cc1ccccc1)C(=O)N[C@@H](CCCCN)C(=O)N[C@@H](CC(C)C)C(=O)N[C@@H](CCC(N)=O)C(=O)N[C@@H](CC(C)C)C(=O)N[C@@H](CC(C)C)C(=O)N[C@@H](CCCCN)C(=O)N[C@@H](CCCCN)C(N)=O)[C@@H](C)CC)[C@@H](C)CC | – | ATCC BAA1605, Mueller-Hinton broth | 24 h | 32 µM |
| CC[C@H](C)[C@H](NC(=O)CN)C(=O)NCC(=O)N[C@@H](C)C(=O)N[C@H](C(=O)N[C@@H](CC(C)C)C(=O)N[C@@H](CCCCN)C(=O)N[C@H](C(=O)N[C@@H](CC(C)C)C(=O)N[C@H](C(=O)N[C@H](C(=O)NCC(=O)N[C@@H](CC(C)C)C(=O)N1CCC[C@H]1C(=O)N[C@@H](C)C(=O)N[C@@H](CC(C)C)C(=O)N[C@H](C(=O)N[C@@H](CO)C(=O)N[C@@H](Cc1c[nH]c2ccccc12)C(=O)N[C@H](C(=O)N[C@@H](CCCCN)C(=O)N[C@@H](CCCNC(=N)N)C(=O)N[C@@H](CCCCN)C(=O)N[C@@H](CCCNC(=N)N)C(=O)N[C@@H](CCC(N)=O)C(=O)N[C@@H](CCC(N)=O)C(N)=O)[C@@H](C)CC)[C@@H](C)CC)[C@@H](C)O)[C@@H](C)O)C(C)C)C(C)C | – | CCARM 12004 carbapenem-resistant | – | 8 µM |
| CCCCCCCC(=O)N[C@@H](CCN)C(=O)N[C@H](C(=O)N[C@@H](CCN)C(=O)N[C@H]1CCNC(=O)[C@H]([C@@H](C)O)NC(=O)[C@H](CCN)NC(=O)[C@H](CCN)NC(=O)[C@H](Cc2ccccc2)NC(=O)[C@@H](CCc2ccccc2)NC(=O)[C@H](CCN)NC1=O)[C@@H](C)O | broth microdilution | colistin-resistant isolates | – | 1 to 2 µg/mL |
| CC[C@H]1OC(=O)[C@H](C)[C@@H](O[C@H]2C[C@@](C)(OC)[C@@H](O)[C@H](C)O2)[C@H](C)[C@@H](O[C@@H]2O[C@H](C)C[C@H](N(C)C)[C@H]2O)[C@](C)(O)C[C@@H](C)C(=O)[C@H](C)[C@@H](O)[C@]1(C)O | growth inhibition | Tn7::dCas9 vector control | without ATc | 2 µg/mL |
| CC[C@H](C)[C@H](NC(=O)CNC(=O)[C@H](CC(=O)O)NC(=O)[C@H](CCCNC(=N)N)NC(=O)[C@@H](NC(=O)[C@H](CC(N)=O)NC(=O)[C@H](CCCNC(=N)N)NC(=O)CNC(=O)[C@@H](NC(=O)[C@H](CCCCN)NC(=O)[C@H](CCC(=O)O)NC(=O)[C@@H](NC(=O)[C@H](CCCCN)NC(=O)[C@H](CCCCN)NC(=O)[C@H](Cc1ccccc1)NC(=O)[C@@H](NC(=O)[C@H](CCCCN)NC(=O)[C@H](Cc1c[nH]c2ccccc12)NC(=O)[C@@H](N)CCCNC(=N)N)[C@@H](C)CC)[C@@H](C)CC)C(C)C)C(C)C)C(=O)N[C@H](C(=O)N[C@@H](CCCCN)C(=O)N[C@@H](C)C(=O)NCC(=O)N1CCC[C@H]1C(=O)N[C@@H](C)C(=O)N[C@H](C(=O)N[C@@H](C)C(=O)N[C@H](C(=O)N[C@H](C(=O)NCC(=O)N[C@@H](CCC(N)=O)C(=O)N[C@@H](C)C(=O)N[C@@H](C)C(=O)N[C@H](C(=O)N[C@H](C(=O)N[C@H](C(=O)N[C@@H](CCCCN)C(N)=O)C(C)C)C(C)C)[C@@H](C)O)C(C)C)C(C)C)C(C)C)[C@@H](C)CC | – | CCARM 12005 carbapenem-resistant | – | 1 µM |
| CC(=O)N[C@@H](CC(C)C)C(=O)N[C@@H](CCCCN)C(=O)N[C@@H](CC(C)C)C(=O)N[C@@H](CC(C)C)C(=O)N[C@@H](CCCCN)C(=O)N[C@@H](CCCCN)C(=O)N1CCC[C@H]1C(=O)N[C@@H](CC(C)C)C(=O)N[C@@H](CCCCN)C(=O)N[C@@H](CC(C)C)C(=O)N[C@@H](CC(C)C)C(=O)N[C@@H](CCCCN)C(N)=O | broth microdilution | ATCC 17978 | 18 h, 37 °C, compound alone | > 80 µM |

For quick reference, copied from above:
| Compound | assay | test system | conditions | MIC |
| --- | --- | --- | --- | --- |
| CCCCCCCC(=O)N[C@@H](CCN)C(=O)N[C@H](C(=O)N[C@@H](CCN)C(=O)N[C@H]1CCNC(=O)[C@H]([C@@H](C)O)NC(=O)[C@H](CCN)NC(=O)[C@H](CCN)NC(=O)[C@H](Cc2ccccc2)NC(=O)[C@@H](CCc2ccccc2)NC(=O)[C@H](CCN)NC1=O)[C@@H](C)O | broth microdilution | colistin-resistant isolates | – | 1 to 2 µg/mL |
| CC[C@H](C)CCCCC(=O)N[C@@H](CCN)C(=O)N[C@H](C(=O)N[C@@H](CCN)C(=O)N[C@H]1CCNC(=O)[C@H]([C@@H](C)O)NC(=O)[C@H](CCN)NC(=O)[C@H](CCN)NC(=O)[C@H](CC(C)C)NC(=O)[C@@H](CC(C)C)NC(=O)[C@H](CCN)NC1=O)[C@@H](C)O | – | lab-evolved 408 | – | 8 µg/mL |
